Assay results of several laboratories.
Protocols differ between the studies behind these lines. Numbers after ± are the reported error.

Structure (SMILES) | cell line | assay | setting | how to read | endpoint | value
CC(C)=CCc1ncc(/C=C2\NC(=O)[C@H](C(C)C)NC2=O)[nH]1 | NCI-H446/EP | cell growth, SRB | – | – | IC50 | > 15000 nM
CN(C)C/C=C/C(=O)Nc1cc2c(Nc3ccc(F)c(Cl)c3)ncnc2cc1O[C@H]1CCOC1 | NCI-H1975 | – | – | – | IC50 | 710 ± 40 nM
O=C1/C(=C/c2ccccc2)C(NC2CCCCC2)c2ccccc21 (stereo not shown) | THP1-ASC-GFP cells | ASC speck formation, high-content imaging | 1 h pretreatment, together with: LPS priming and nigericin | – | IC50 | 228 nM
Nc1ccn([C@@H]2O[C@H](CO)[C@@H](O)C2(F)F)c(=O)n1 | MIA PaCa-2 | cell viability, MTT | mutant KRAS primary | – | IC50 | 9 nM
COc1ccc2cc3[n+](cc2c1OC)CCc1cc2c(cc1-3)OCO2 | THP-1 | pyroptotic LDH release | 2 µM, 40 min, together with: LPS then nigericin | – | inhibition | 2.32%
C[C@@H]1CN(C(=O)c2ccc(NC(=O)c3cc(O[C@H](C)c4c(Cl)ccc(F)c4Cl)c(N)nn3)cc2)C[C@H](C)N1 | Ba/F3 ETV6-TRKB | cell viability | – | – | IC50 | 81 nM
CC[C@@H](C)[C@H](N)C(=O)N1Cc2ccccc2C1 | NOMO-1 | cell viability, CellTiter-Glo | – | reference: DMSO | IC50 | 1000 nM
CC(=O)c1c(O)c(C)c(O)c2c1OC1=CC(=O)C(C(C)=O)C(=O)C12C (single isomer, unassigned; (+)) | hepatocytes, iPSC-derived, line L2 | cell viability | 72 h | – | IC50 | 16000 nM
CCS(=O)(=O)Nc1ccc(Oc2ccc(F)cc2F)c(-c2cn(C)c(=O)c3[nH]ccc23)c1 | uveal melanoma cell lines | cell viability | average over cell lines | – | IC50 | 125 nM
CCCCN1C[C@H](O)[C@@H](O)[C@@H](O)[C@H]1CO | sample A patient fibroblasts | acidic compartment staining, LysoTracker Red imaging | 216 h | – | IC50 | 9300 nM
COc1cc(N2CCC(N3CCN(C)CC3)CC2)ccc1Nc1ncc(Cl)c(Nc2ccccc2P(C)(C)=O)n1 | Ba/F3 ETV6-TRKB | cell viability | – | – | IC50 | 2640 nM
Cc1c(C)c2c(c(C)c1O)CCC(C)(COc1ccc(CC3SC(=O)NC3=O)cc1)O2 (stereo not shown) | hepatocytes, iPSC-derived, line L2 | cell viability, RealTime-Glo MT | 72 h, differentiation day 23 | – | IC50 | 42000 nM
Cc1cc(Nc2ncnc3ccc(NC4=NC(C)(C)CO4)cc23)ccc1Oc1ccn2ncnc2c1 | Ba/F3 expressing HER2 L755P | cell growth, inhibitor, CellTiter-Glo | – | – | IC50 | 608 nM
Cc1c(C(=O)O)ccc2c3n(nc12)[C@@H]1[C@H](C3)N(CC2CC2)[C@@]2(C(=O)Nc3cc(Cl)ccc32)[C@H]1c1cccc(Cl)c1F | resistant cancer cell lines | cell viability, PRISM pooled screen | range, low sensitivity | – | IC50 | 2190 to 9790 nM
Cc1cc(C(C)Nc2ccccc2)c2nc(N3CCOCC3)cc(=O)n2c1 (stereo not shown) | HCC1954 (PIK3CA H1047R) | cell viability | 4 days | – | IC50 | 5490 nM
CC(=O)O[C@H]1C(=O)[C@@]2(C)[C@H]([C@H](OC(=O)c3ccccc3)[C@]3(O)C[C@H](OC(=O)[C@H](O)[C@@H](NC(=O)c4ccccc4)c4ccccc4)C(C)=C1C3(C)C)[C@]1(OC(C)=O)CO[C@@H]1C[C@@H]2O | MCF7 (compound-resistant) | cell growth, inhibitor, CellTiter-Glo | 96 h | – | IC50 | 44.5 nM
OCC(O)CN1CCN(c2ccccc2)CC1 (stereo not shown) | THP-1 | pyroptotic LDH release | 2 µM, 40 min, together with: LPS then nigericin | – | inhibition | 43.2%
Nc1ccn([C@@H]2O[C@H](CO)[C@@H](O)C2(F)F)c(=O)n1 | uveal melanoma cell lines | cell viability | average over cell lines | – | IC50 | 493 nM
Nc1nnc(-c2ccccc2O)cc1N1CCN(Cc2ccc(OCCOCCNc3cccc4c3C(=O)N(C3CCC(=O)NC3=O)C4=O)c(F)c2)CC1 (stereo not shown) | SMARCA4 wild-type lung cancer cells | clonogenic growth | 10 days, median over cell lines | – | IC50 | 6000 nM
CC1CCC(OCn2c[n+](Cc3ccccc3)c3ccccc32)CC1 (stereo not shown) | H1299 (p53 null) | cell viability, MTT | 72 h | – | IC50 | 36000 ± 4600 nM
COc1c(Cl)cccc1Nc1c(-c2ccncc2OC[C@@H]2COCCO2)[nH]c2c1C(=O)NCC2 | Ba/F3 expressing HER2 L755P | cell growth, inhibitor, CellTiter-Glo | – | – | IC50 | 11.6 nM
CC1(C)CC(=O)C2=C(C1)Oc1ccc(Cl)cc1C2n1nnc2ccccc21 (stereo not shown) | 3T3-L1 pre-adipocytes | cell viability, MTT | 72 h | – | IC50 | 24.7 ± 2.34 µg/mL

Excerpt of the above:
Structure (SMILES) | cell line | assay | setting | how to read | endpoint | value
Nc1ccn([C@@H]2O[C@H](CO)[C@@H](O)C2(F)F)c(=O)n1 | MIA PaCa-2 | cell viability, MTT | mutant KRAS primary | – | IC50 | 9 nM
COc1ccc2cc3[n+](cc2c1OC)CCc1cc2c(cc1-3)OCO2 | THP-1 | pyroptotic LDH release | 2 µM, 40 min, together with: LPS then nigericin | – | inhibition | 2.32%
